Published values gathered from unrelated publications.
Protocols differ between the studies behind these lines. “And” joins repeats or separate records; there may be more than shown. ± marks the error that the study gave.
plsY: Glycerol-3-phosphate acyltransferase (plsY, Streptococcus pneumoniae, UniProt P0A4Q0)
Trypanothione synthetase: Trypanothione synthetase (Trypanosoma brucei brucei, UniProt Q586P2)
Sequence of UniProt Q86YV6 (whole entry, looked up): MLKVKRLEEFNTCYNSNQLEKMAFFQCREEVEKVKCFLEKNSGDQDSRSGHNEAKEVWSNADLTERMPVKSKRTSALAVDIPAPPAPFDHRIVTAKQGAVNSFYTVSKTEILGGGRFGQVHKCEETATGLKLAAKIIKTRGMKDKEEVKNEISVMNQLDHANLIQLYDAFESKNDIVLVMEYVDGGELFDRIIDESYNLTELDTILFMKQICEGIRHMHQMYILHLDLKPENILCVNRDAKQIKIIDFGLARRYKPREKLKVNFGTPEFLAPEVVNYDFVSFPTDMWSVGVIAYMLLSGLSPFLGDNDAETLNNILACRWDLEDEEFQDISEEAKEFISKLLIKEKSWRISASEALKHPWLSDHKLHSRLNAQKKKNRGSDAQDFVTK
Sequence of UniProt P47901 (whole entry, looked up): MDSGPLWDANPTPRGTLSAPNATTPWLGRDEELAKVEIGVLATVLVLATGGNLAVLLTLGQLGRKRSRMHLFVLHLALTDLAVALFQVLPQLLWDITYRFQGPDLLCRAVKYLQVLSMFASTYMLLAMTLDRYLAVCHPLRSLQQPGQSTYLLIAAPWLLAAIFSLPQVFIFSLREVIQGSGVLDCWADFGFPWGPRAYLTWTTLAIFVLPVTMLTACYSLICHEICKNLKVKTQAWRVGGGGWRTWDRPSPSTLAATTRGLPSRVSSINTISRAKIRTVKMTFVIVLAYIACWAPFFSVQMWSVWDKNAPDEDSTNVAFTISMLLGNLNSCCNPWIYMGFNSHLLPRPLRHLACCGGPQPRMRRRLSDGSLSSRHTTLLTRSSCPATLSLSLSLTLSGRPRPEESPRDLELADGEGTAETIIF
Sequence of UniProt O75676 (whole entry, looked up): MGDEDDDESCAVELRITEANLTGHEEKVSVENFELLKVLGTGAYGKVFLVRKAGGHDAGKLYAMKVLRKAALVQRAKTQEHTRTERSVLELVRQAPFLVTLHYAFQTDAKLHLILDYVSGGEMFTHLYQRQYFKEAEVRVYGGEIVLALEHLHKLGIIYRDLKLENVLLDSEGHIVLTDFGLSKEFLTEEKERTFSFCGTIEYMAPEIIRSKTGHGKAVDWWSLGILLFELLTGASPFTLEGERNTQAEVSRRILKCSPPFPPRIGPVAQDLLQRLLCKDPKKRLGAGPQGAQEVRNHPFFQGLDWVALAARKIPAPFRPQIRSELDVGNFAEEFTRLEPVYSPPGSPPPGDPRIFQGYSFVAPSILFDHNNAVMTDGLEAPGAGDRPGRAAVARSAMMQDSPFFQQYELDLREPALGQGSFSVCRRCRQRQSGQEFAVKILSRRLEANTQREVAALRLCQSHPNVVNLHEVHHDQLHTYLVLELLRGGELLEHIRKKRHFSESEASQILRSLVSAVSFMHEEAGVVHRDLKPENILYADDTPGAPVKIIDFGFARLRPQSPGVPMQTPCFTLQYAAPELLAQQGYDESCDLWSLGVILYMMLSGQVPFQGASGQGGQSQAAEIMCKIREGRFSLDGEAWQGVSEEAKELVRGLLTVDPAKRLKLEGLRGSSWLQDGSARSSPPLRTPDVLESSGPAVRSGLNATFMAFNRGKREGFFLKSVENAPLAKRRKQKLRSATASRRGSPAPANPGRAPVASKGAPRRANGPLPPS
Sequence of UniProt P06239 (whole entry, looked up): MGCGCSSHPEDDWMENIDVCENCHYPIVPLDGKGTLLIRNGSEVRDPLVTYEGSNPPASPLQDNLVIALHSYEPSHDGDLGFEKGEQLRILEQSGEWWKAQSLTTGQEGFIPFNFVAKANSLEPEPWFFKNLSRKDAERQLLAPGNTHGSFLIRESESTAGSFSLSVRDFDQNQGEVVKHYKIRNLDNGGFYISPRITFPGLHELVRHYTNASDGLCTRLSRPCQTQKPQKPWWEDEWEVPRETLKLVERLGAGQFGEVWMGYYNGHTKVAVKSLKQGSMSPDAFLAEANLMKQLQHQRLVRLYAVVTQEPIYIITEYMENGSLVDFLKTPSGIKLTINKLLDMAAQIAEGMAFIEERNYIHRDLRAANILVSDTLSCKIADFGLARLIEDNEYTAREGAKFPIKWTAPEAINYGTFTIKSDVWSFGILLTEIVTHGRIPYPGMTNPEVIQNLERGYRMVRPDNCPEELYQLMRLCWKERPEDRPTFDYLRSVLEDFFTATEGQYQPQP
Sequence of UniProt P50897 (whole entry, looked up): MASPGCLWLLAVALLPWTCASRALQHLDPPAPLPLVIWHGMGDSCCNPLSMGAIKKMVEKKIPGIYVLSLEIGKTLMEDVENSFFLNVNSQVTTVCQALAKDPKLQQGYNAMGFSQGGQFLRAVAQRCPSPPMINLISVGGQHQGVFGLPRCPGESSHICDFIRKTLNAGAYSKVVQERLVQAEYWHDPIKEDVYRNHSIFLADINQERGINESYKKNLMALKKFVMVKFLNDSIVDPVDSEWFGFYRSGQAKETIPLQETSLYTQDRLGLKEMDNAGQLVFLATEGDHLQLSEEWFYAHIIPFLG
Sequence of UniProt P26358 (whole entry, looked up): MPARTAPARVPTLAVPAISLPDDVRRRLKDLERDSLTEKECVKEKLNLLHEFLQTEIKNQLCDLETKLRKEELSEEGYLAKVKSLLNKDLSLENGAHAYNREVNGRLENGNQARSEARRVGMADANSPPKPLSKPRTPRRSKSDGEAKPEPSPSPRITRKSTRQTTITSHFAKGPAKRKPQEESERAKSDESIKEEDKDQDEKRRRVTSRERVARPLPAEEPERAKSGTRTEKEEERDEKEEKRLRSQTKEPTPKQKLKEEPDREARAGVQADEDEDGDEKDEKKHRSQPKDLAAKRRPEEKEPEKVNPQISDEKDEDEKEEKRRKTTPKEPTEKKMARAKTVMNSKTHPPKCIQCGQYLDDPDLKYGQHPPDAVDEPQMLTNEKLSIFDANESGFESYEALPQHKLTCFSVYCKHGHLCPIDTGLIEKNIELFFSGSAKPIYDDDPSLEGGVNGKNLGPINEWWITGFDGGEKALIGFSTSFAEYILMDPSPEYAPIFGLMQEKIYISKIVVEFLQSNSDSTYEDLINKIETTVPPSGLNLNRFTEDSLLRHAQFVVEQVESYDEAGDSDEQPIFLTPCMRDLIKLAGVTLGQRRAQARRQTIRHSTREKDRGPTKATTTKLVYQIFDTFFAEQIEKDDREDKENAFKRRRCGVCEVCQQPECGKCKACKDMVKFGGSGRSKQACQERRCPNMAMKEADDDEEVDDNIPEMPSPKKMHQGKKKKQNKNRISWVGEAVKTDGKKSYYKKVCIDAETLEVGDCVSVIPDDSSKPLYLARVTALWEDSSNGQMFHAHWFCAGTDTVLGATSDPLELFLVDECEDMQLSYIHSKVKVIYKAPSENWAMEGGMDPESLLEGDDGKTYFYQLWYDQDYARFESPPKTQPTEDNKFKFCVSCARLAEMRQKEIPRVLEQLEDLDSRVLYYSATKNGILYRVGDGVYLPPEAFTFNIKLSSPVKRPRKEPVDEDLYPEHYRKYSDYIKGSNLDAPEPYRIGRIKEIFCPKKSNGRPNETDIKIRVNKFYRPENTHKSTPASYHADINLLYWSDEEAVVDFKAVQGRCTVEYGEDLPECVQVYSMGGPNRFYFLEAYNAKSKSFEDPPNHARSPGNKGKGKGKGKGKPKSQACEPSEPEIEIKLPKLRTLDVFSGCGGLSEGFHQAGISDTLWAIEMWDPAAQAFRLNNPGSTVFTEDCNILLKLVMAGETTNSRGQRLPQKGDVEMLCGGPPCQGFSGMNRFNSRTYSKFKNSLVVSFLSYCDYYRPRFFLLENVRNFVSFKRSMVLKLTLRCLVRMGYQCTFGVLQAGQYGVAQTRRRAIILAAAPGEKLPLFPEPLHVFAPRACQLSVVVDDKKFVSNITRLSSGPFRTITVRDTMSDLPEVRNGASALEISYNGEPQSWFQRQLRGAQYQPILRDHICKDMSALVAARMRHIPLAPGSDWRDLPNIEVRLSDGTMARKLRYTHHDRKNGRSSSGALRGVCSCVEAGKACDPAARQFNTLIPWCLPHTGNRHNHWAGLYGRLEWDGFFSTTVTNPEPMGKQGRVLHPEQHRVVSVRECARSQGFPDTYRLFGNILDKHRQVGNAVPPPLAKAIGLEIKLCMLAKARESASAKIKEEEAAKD
Sequence of UniProt Q06418 (whole entry, looked up): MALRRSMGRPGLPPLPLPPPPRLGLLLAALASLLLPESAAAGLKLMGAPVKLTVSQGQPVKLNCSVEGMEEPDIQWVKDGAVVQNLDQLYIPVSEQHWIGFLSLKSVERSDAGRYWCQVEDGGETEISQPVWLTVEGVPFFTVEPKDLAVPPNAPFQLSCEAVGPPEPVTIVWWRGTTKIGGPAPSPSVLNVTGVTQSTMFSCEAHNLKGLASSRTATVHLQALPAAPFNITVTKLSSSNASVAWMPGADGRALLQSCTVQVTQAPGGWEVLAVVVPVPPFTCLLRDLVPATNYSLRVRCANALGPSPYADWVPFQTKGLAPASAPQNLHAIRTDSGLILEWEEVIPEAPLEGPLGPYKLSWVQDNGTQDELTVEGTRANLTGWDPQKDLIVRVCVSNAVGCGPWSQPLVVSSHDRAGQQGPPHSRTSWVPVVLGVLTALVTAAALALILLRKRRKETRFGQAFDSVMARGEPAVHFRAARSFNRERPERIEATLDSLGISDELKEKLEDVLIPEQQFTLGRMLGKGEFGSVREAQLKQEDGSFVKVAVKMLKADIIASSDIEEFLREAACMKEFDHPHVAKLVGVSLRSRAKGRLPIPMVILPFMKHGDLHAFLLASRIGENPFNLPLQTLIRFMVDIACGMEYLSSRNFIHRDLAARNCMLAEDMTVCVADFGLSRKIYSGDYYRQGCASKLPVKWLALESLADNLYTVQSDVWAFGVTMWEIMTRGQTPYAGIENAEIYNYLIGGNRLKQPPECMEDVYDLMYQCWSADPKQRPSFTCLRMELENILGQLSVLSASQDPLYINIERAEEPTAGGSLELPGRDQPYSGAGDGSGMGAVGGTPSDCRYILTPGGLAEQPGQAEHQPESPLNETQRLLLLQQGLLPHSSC

O=C(Nc1cnccc1Cl)N1CCN(Cc2ccc3c(c2)OC(F)(F)O3)CC1 — inhibition (Monoacylglycerol lipase ABHD6 (Abhd6, Rattus norvegicus, UniProt Q5XI64); probe labelling, inhibitor, competitive ABPP with azido-FP probe, item: ABHD6; rat brain soluble fraction; 1 µM): 4.7%
C[C@H]1CN(c2n[nH]c3nc(N[C@H]4CC[C@H](NS(=O)(=O)CCC(F)(F)F)CC4)ncc23)CCO1 — relative abundance (MELK (Homo sapiens, UniProt Q14680); inhibitor, Kinobeads competition profiling; 20 µM; relative to: vehicle): 1.08
O=C(CCCCCCCCCCOc1ccccc1)CP(=O)(O)O — inhibition (plsY; inhibitor; 200 µM): 48%
C[C@H]1N=C(c2ccccc2F)c2cc(Br)ccc2-n2cnc(C(=O)O)c21 — inhibition (sigma receptor 2; binding; 10 µM): -15.5 ± 10.7%
COc1cc2c(NC3CCN(C)CC3)cc(-c3ccc(C)o3)nc2cc1OCCCN1CCCC1 — inhibition (DNMT1 (Homo sapiens, UniProt P26358); enzyme activity; 11110 nM): 82.2%
C[C@@H](O)[C@H](NC(=O)[C@@H]1CSSC[C@H](NC(=O)[C@@H](Cc2ccccc2)NC(=O)CN2CCN(CC(=O)[O-])CCN(CC(=O)[O-])CCN(CC(=O)[O-])CC2)C(=O)N[C@@H](Cc2ccc(O)cc2)C(=O)N[C@H](Cc2c[nH]c3ccccc23)C(=O)N[C@@H](CCCCN)C(=O)N[C@@H]([C@@H](C)O)C(=O)N1)C(=O)O.[177Lu+3] — retention (MEC1; gamma counter; 120 min efflux after 2 h loading): 29.3%
FC(F)(F)c1cccc(Nc2nc(NCCOc3ccccc3)nc3[nH]cnc23)c1 — inhibition (Cyclin-dependent kinase 2, with cyclin A (CDK2, Homo sapiens, UniProt P24941); enzyme activity, inhibitor, Thermo Fisher kinase screening; 5 µM): 7% and 5%
Cc1c(C(=O)OCC2CCCN2C(N)=O)oc2c(Cl)cccc12 (stereo not shown) — inhibition (Trypanothione synthetase; enzyme activity, BIOMOL Green phosphate release; 25 µM): 24.3 ± 2.4%
CO[C@H]1C[C@@H]2CC[C@@H](C)[C@@](O)(O2)C(=O)C(=O)N2CCCC[C@H]2C(=O)O[C@H]([C@H](C)C[C@@H]2CC[C@@H](OC(=O)NCCOCCOCCOCCOCCOCCOCCOCCOCCC(=O)N3CCc4cc(Cn5nc(-c6ccc7oc(N)nc7c6)c6c(N)ncnc65)ccc4C3)[C@H](OC)C2)C[C@@H](O)[C@H](C)/C=C(\C)[C@@H](O)[C@@H](OC)C(=O)[C@H](C)C[C@H](C)/C=C/C=C/C=C/1C — AEs causing dose modification (phase 1 dose escalation; advanced solid tumour patients; intravenous, 10 mg weekly, grade ≥3): 50%
CN1CCN(c2cc(-c3ccncc3)c(-c3ccc4ccccc4c3)nn2)CC1 — inhibition (GALR2 (Homo sapiens, UniProt O43603); antagonist, FLIPR; 10 µM): -7.6%
CN1CCN(c2nc(N)c3ccccc3n2)CC1 — inhibition (glycine receptor (rat); binding, radioligand binding; 0.1 µM): 4.1%
CN(C(=O)n1cnc(-c2ccc[n+]([O-])c2)c1)C1CCCCC1 — inhibition (somatostatin sst4 receptor; concentration not given): 3% and -3%
CC[C@H](C)[C@@H]1NC(=O)[C@@H]2CCCN2C(=O)[C@H](CC(C)C)NC(=O)[C@H](CC(C)C)NC(=O)CNC(=O)[C@@H](NC(=O)[C@@H](NC(=O)[C@H](CC(=O)O)NC(=O)CNC(=O)[C@@H](NC(=O)[C@H](C)NC(=O)CNC(=O)[C@H](CCCCN)NC(=O)[C@H](CC(C)C)NC(=O)[C@H](CC(C)C)NC(=O)[C@H](CCCCN)NC(=O)CNC(=O)[C@@H](NC(=O)[C@@H](N)CC(C)C)C(C)C)C(C)C)C(C)C)CSSC[C@@H](C(=O)O)NC1=O — log2 fold change (RNA-seq, item: P2ry2 mRNA; mouse traumatic brain injury, frontal cortex and hippocampus; dose not given; relative to: TBI plus compound vs TBI): -2.31
C[C@H](N)Cn1ncc2ccc3c(c21)CCCO3.Cl — inhibition (sigma receptor (non-selective); radioligand binding; 10 µM): 57%
O=C(c1ccc(Cl)cc1)N1CCN2C(=O)N(OC(=O)N3CCOc4ccccc43)C(=O)C2C1 (stereo not shown) — median protein ratio (Platelet-activating factor acetylhydrolase IB subunit alpha1 (Homo sapiens, UniProt Q15102); MS-based ABPP; SW-620 conditioned medium; 10 µM, 1 h, 37 °C; relative to: compound over DMSO, lower = more inhibition): 0.8
[2H]c1c([2H])c([C@]2([2H])CCCN2C(=O)C(C)(C)Oc2ccc3cn[nH]c3c2)c([2H])c([2H])c1C([2H])([2H])[2H] — remaining binding (MYLK4 (Homo sapiens, UniProt Q86YV6); KINOMEscan; 1 µM; relative to: DMSO control): 95%
O=C(Cc1c[nH]c2cc(Cl)ccc12)N1CCC(n2ccnc2)CC1 — inhibition (Trypanothione synthetase; enzyme activity, BIOMOL Green phosphate release; 25 µM): 38.1 ± 7.2%
C[C@@H](O)[C@@H](CO)NC(=O)[C@@H](CCCNC(=N)N)NC(=O)[C@@H]1CCCN1C(=O)[C@@H]1CSSC[C@H](NC(=O)[C@H](Cc2ccccc2)NC(=O)CN2CCN(CC(=O)O)CCN(CC(=O)O)CCN(CC(=O)O)CC2)C(=O)N[C@@H](Cc2ccc(O)cc2)C(=O)N[C@@H](Cc2ccccc2)C(=O)N[C@@H](CCC(N)=O)C(=O)N[C@@H](CC(N)=O)C(=O)N1 [gallium-68 labelled] — tissue uptake (Wistar rat, spleen; intravenous, 8 MBq, 30 min, group mean): 0.31 %ID/g
C=CC[C@]1(O)CC[C@H]2[C@@H]3CCC4=CC(=O)CCC4=C3C=C[C@@]21C — inhibition (Palmitoyl-protein thioesterase 1 (Homo sapiens, UniProt P50897); Spectrum Collection screen; concentration not given, with: substrate 20 µM): 66.8%
COc1ccc(N2C(=O)N(c3c(C)cccc3Cl)Cc3cnc(Nc4ccc(C5CCN(C)CC5)cc4OC)nc32)nc1 — inhibition (RPS6KA4 (Homo sapiens, UniProt O75676); kinase activity, inhibitor; 0.5 µM, MSK2): 5.41%
O=C(O)C[C@H](NC(=O)[C@H](CC(=O)O)NC(=O)[C@H](CC(=O)O)NC(=O)[C@H](CC(=O)O)NC(=O)[C@H](CC(=O)O)NC(=O)[C@H](CC(=O)O)NC(=O)[C@H](CC(=O)O)NC(=O)[C@H](CC(=O)O)NC(=O)[C@H](CC(=O)O)NC(=O)[C@H](CC(=O)O)NC(=O)[C@H](CC(=O)O)NC(=O)[C@H](CCCCNC(=O)c1ccc(C(=O)NCCOCCOB2BBBBBB3BBBB3B2)cc1)NC(=O)CN1CCN(CC(=O)O)CCN(CC(=O)O)CCN(CC(=O)O)CC1)C(=O)O [gallium-67 labelled] — tissue uptake (gamma counting; ddY mouse, male, 6 weeks old, kidney; intravenous, 37 kBq, 10 min): 14.2 %ID/g
NCc1cc(=O)[nH]o1 — inhibition (GABA-A receptor agonist site (rat); radioligand binding; rat brain; 1×10 µM): 94.3%
C=CCCCCCCCCC(=O)C(F)(F)P(=O)(O)O — inhibition (plsY; inhibitor; 200 µM): 14%
CC(C)C[C@@H]1NC(=O)[C@H](CC(C)C)NC(=O)[C@H](Cc2c[nH]c3ccccc23)NC(=O)[C@H](CO)NC(=O)[C@H](Cc2c[nH]c3ccccc23)NC(=O)[C@@H]2CCCN2C(=O)[C@H](CC(C)C)NC(=O)[C@H](Cc2c[nH]cn2)NC(=O)[C@@H]2CCCN2C(=O)[C@H](CC(N)=O)NC(=O)[C@H](C)NC(=O)[C@H](Cc2ccc(O)cc2)NC(=O)[C@H](CS)NC(=O)[C@H](CCCCNC(=O)CN2CCN(CC(=O)O)CCN(CC(=O)O)CCN(CC(=O)O)CC2)NC1=O [lutetium-177 labelled] — tissue uptake (Balb/c mouse, female, 4T1 tumour, intestine; intravenous, 3.7 MBq, 96 h): 0.81 %ID
CCCCCCCCCCCCCCCC(=O)NS(=O)(=O)Oc1ccc(OC)cc1 — inhibition (plsY; inhibitor; 200 µM): 100%
CC(C)[C@@H]1NC(=O)[C@H](Cc2ccccc2)NC(=O)[C@@H]2NC(=O)[C@H](Cc3ccccc3)NC(=O)[C@@H]3CCCN3C(=O)CNC(=O)[C@H](Cc3ccccc3)NC(=O)[C@@H]3CNCCCC[C@@H](C(=O)O)NC(=O)[C@@H]4NC(=O)[C@H](CC(N)=O)NC(=O)CNC(=O)[C@H]([C@@H](O)C(=O)O)NC(=O)[C@H](CSC[C@@H](NC(=O)[C@H](CCC(N)=O)NC(=O)[C@H](CCCCNC(=O)c5ccc(NN)nc5)NC(=O)[C@@H](N)CS[C@H]4C)C(=O)N[C@@H](CS[C@H]2C)C(=O)N3)NC1=O [technetium-99m labelled] — tissue uptake (rat, saline control, liver; intravenous, 2 h after tracer, tracer 2 h after reperfusion): 1.21 ± 0.26 %ID/g
O=C(Nc1cccnn1)N1CCC(=Cc2cccc(Oc3ccc(C(F)(F)F)cn3)c2)CC1 — inhibition (AVPR1B (Homo sapiens, UniProt P47901); binding; 10 µM, with: [3H][Arg8]vasopressin): 0%
O=C(Cc1ccc2c(c1)CCCC2)NCc1ccc(N2CCCC2)nc1 — inhibition (Trypanothione synthetase; enzyme activity, BIOMOL Green phosphate release; 25 µM): 18.6 ± 5.6%
O=C(CCCCC1CCCCC1)NP(=O)(O)O — inhibition (plsY; inhibitor; 200 µM): 18%
Cc1ncc(C)n2nc(/C=C/c3nc(N4CCCC4)cc(N4CCOCC4)n3)nc12 — inhibition (catechol O-methyltransferase; enzyme activity; 10 µM): -11%
CC[C@H](C)[C@H](NC(=O)[C@H](Cc1ccccc1)NC(=O)[C@H](CCC(=O)O)NC(=O)[C@H](CCCNC(=N)N)NC(=O)[C@H](C)NC(=O)[C@H](C)NC(=O)[C@H](CCC(N)=O)NC(=O)[C@H](CCC(=O)O)NC(=O)[C@H](CCC(=O)O)NC(=O)[C@H](CC(C)C)NC(=O)[C@H](Cc1ccc(O)cc1)NC(=O)[C@H](CO)NC(=O)[C@H](CO)NC(=O)[C@@H](NC(=O)[C@H](CC(=O)O)NC(=O)[C@H](CO)NC(=O)[C@@H](NC(=O)[C@H](Cc1ccccc1)NC(=O)[C@@H](NC(=O)CNC(=O)[C@H](CCC(=O)O)NC(=O)[C@H](C)NC(=O)CCc1c[nH]cn1)[C@@H](C)O)[C@@H](C)O)C(C)C)C(=O)N[C@@H](C)C(=O)N[C@@H](Cc1c[nH]c2ccccc12)C(=O)N[C@@H](CC(C)C)C(=O)N[C@H](C(=O)N[C@@H](CCCNC(=N)N)C(=O)NCC(=O)N[C@@H](CCCNC(=N)N)C(=O)N[C@@H](CCCCNC(=O)COCCOCCNC(=O)COCCOCCNC(=O)CC[C@H](NC(=O)CCCCCCCCCCCCCCCCC(=O)O)C(=O)O)C(=O)NCC(=O)NCC(=O)N[C@@H](CO)C(=O)N[C@@H](CCCCNc1c(NCCCCCN(O)C(=O)CCC(=O)NCCCCCN(O)C(=O)CCC(=O)NCCCCCN(O)C(C)=O)c(=O)c1=O)C(=O)O)C(C)C [zirconium-89 labelled] — tissue uptake (rat, heart; iv, 3 nmol/kg, 24 h, ex vivo): 0.16 %ID/g
O=C(O)c1nccnc1NC(=O)c1cccc2ccccc12 — inhibition (panD (Mycobacteroides abscessus, UniProt B1MGV7, E120A); 200 µM): 70.5%
Oc1ccc2c3c1O[C@H]1[C@@H](O)CC[C@@]4(O)[C@@H](C2)N(CC2CCC2)CC[C@]314 — log2 fold change (G-protein coupled receptor 161 (GPR161, Homo sapiens, UniProt Q8N6U8); β-arrestin recruitment, TANGO luminescence, item: GPR161; concentration not given; relative to: basal luminescence): 0.144
CCCCCC/C=C\CCCCCCCCCC(=O)CP(=O)(O)O — inhibition (plsY; inhibitor; 200 µM): 98%
CN1CCC(c2cc(-c3ccncc3)c(-c3ccc(F)cc3)[nH]2)CC1 — inhibition (cGMP-dependent protein kinase (PKG, Plasmodium falciparum, UniProt Q8I719); 10 µM): 104 ± 2%
COCc1c(-c2cc3cc(C)cc(OC)c3s2)c2c(N)ncnn2c1CN1CCNC(=O)C1 — inhibition (AMPA receptor; radioligand binding; 10 µM): 0%
C[C@H](C(=O)N[C@H]1COc2ccccc2[C@@H]1S(C)(=O)=O)c1ccc(F)cc1 — inhibition (GSK3B (Homo sapiens, UniProt P49841); activity; 10 µM, Eurofins selectivity panel): -11%
CS(=O)(=O)c1ccc(OP(=O)(Oc2ccc(S(C)(=O)=O)cc2)C(NC(=O)OCc2ccccc2)c2c[nH]c3ccccc23)cc1 (racemic) — inhibition (Structural polyprotein, capsid protease (O'nyong-nyong virus, UniProt P22056); protease activity, irreversible covalent inhibitor; 100 µM, 30 °C, CP Δ2 construct, 1% DMSO, with: H-Gly-Glu-Ser-Glu-Val-Trp-ACC, 50 µM): 62.8 ± 0.2%
COc1cc(Nc2ncc(F)c(Nc3ccc4c(n3)NC(=O)C(C)(C)O4)n2)cc(OC)c1OC — inhibition (TYRO3 (Homo sapiens, UniProt Q06418); kinase binding, KINOMEscan; 10 µM): 61%
CN(CCN1CCC(OC(=O)Nc2ccccc2-c2ccccc2)CC1)C(=O)c1ccc(CN2CCC(C(N)=O)CC2)cc1 — inhibition (rat NPY Y receptor non-selective; radioligand binding; 1 µM, with: [3H]NPY 0.5 nM): -23%
Cn1cccc1-c1cccnc1 — inhibition (HTR1D (Homo sapiens, UniProt P28221); binding; 50 µM): -2.07%
O=c1c(Cl)c(Cl)cnn1Cc1nc2ccccc2c2ccccc12 — inhibition (Trypanothione synthetase; enzyme activity, BIOMOL Green phosphate release; 25 µM): 11.6 ± 4.6%
O=c1ccc2ccccc2o1 — inhibition (LCK (Homo sapiens, UniProt P06239); enzyme activity; 10 µM, SafetyScreen44): -10.2%
